Results collected from several papers.
Protocols differ between the studies behind these lines. Several values in a cell are separate wells, animals, samples, runs or records. ± gives the spread as reported.

O=C(Nc1ccc([C@H]2[C@@H](F)[C@@H](F)C[C@@H](F)[C@H]2F)cc1)c1cn[nH]c1 — hepatic clearance (cryopreserved human hepatocytes; 1 µM): 6.2 mL/min/kg
Cc1noc(C)c1-c1cc(C(O)(c2ccccn2)c2ccccn2)c2nc(C3CC3)[nH]c2c1 — Ctau (human patients, fasted, plasma; oral, 6 mg once daily, cycle 1 day 8): 70.9 ng/mL
Cc1ccc([C@@H]2O[C@H](CO)[C@@H](O)[C@H](O)[C@H]2O)cc1Cc1ccc(-c2ccc(F)cc2)s1 — urinary magnesium excretion change (Japanese type 2 diabetes patients; 400 mg, day 3, 24 h urine collection; reference: baseline): -10.5 mg
CNc1ccc(-c2nc3ccc(O)cc3s2)cc1 [carbon-11 labelled] — SUV (ex vivo biodistribution; APP/PS1 mouse, AD model, cerebellum; intravenous, 30 min): 0.173 ± 0.09
Nc1ccccc1C(=O)C[C@@H](N)C(=O)O — serum protein binding (ultrafiltration; normal rat serum; 37 °C): 91 ± 10%
C=CC(=O)NC1CCN(c2ncc3ncnc(Nc4ccc(Oc5ccc6c(c5)ncn6C)c(C)c4)c3n2)CC1 — AUC(0-tz) (human, male, plasma; oral, 240 mg, fed, adjusted geometric mean): 59.5 µM·h
CC(C)(C(=O)N1CCOc2c(C#N)cncc2C1)C(F)F — share of subjects with TEAE (item: skin disorders; healthy humans, both sexes; oral, 20 mg single dose): 0%
COCCC(=O)Nc1ccc(C2CCCCC2)cc1 — hepatic clearance (liver microsome stability; cynomolgus liver microsomes; 1 µM): 32 mL/min/kg
C[C@]12CC[C@@H]3c4ccc(O)cc4CC[C@H]3[C@@H]1CCC2=O — milk fat partition ratio (cow whole milk; 200 nM; reference: milk fat over skim milk): 62.8
CCO[C@H]1CCN(Cc2c(OC)cc(C)c3[nH]ccc23)[C@H](c2ccc(C(=O)O)cc2)C1 — unbound AUC(0-12) (human severe hepatic impairment, plasma; oral, 200 mg single dose, geometric mean): 9260 ng·h/mL
N#CCC(=O)Nc1ccc([C@H]2[C@@H](F)[C@@H](F)C[C@@H](F)[C@H]2F)cc1 — hepatic clearance (hepatocyte stability; cryopreserved human hepatocytes; 1 µM): 10 mL/min/kg
CCN1/C(=C/C(C)=O)Sc2ccc(F)cc21 — diastolic blood pressure (cynomolgus monkey; oral, 30 mg/kg, 0.5 h post-dose): 75 ± 5 mmHg
Cc1ccc(C(=O)N(CCCN)C(c2nc3snc(C)c3c(=O)n2Cc2ccccc2)C(C)C)cc1 (centres unmarked) — patients with adverse event (pneumonia grade ≥3 (CTCAE); human patients; intravenous, 13 mg/day): 0%
N#Cc1ccc2c(c1)[C@H]1CCCN(C(=O)c3ccc4[nH]cnc4c3)[C@H]1C2 — mean ACTH level (human; 80 mg, day 7): 7.5 pmol/L
CN(C)C(=O)c1cc2cnc(Nc3ccc(N4CCNCC4)cn3)nc2n1C1CCCC1 — Vz/F (human, mild renal impairment, plasma; oral, 400 mg, geometric mean): 3550 L
O=C(OC(C(F)(F)F)C(F)(F)F)N1CCN(Cc2cccc(Oc3ccccc3)c2)CC1 — k2 (PET blocking study; rhesus monkey, brain CB; 0.01 mg/kg, compound pretreatment, added: [18F]T-401 tracer): 0.105 min⁻¹
NC1(C(=O)N[C@@H](CCO)c2ccc(Cl)cc2)CCN(c2nc[nH]c3nccc2-3)CC1 — incidence of Pyrexia (metastatic CRPC patients; 400 mg b.i.d., any grade, treatment-related, added: enzalutamide 160 mg daily): 14.3%
Cc1ccc(O)c(-n2nc3ccccc3n2)c1 — dermal uptake (exposure assessment; human, age 21-60 years, sunscreen): 867 ng/kg body weight/day
c1ncc(-c2ccc(C3CCCCC3)cc2)cn1 — hepatic clearance (hepatocyte stability; cryopreserved human hepatocytes; 1 µM): 13 mL/min/kg
COC1=C(OC)[C@H](O)[C@H](C/C=C(\C)CC/C=C(\C)CCC=C(C)C)[C@@H](C)C1=O — blood concentration (mouse, BALB/c, male, whole blood; oral, 50 mg/kg, 4 h): 35.2 nM and 31.3 nM
NC(=O)c1[nH]cnc1N — AUC(0-8h) (human patients, plasma; IV infusion over 1 h, 1000 mg/m^2 DTIC, cycle 2 day 1, co-administered with co-drug): 5510 ng·h/mL
CN1CCN(C(=O)c2ccc(C3CCCCC3)cc2)CC1=O — hepatic clearance (liver microsome stability; cynomolgus liver microsomes; 1 µM): 16 mL/min/kg
O=C(Nc1nc2cccc(-c3ccc(CN4CCS(=O)(=O)CC4)cc3)n2n1)C1CC1 — treatment-emergent adverse events (item: vascular disorders; rheumatoid arthritis patients; oral, 300 mg once daily, 4 weeks, any relatedness): 0%
O=C(O)CCCOc1ccc([18F])cc1-c1cc(-c2ccccc2C(F)(F)F)n(-c2ccccc2)n1 — unchanged fraction of radioactivity (radio-TLC; ddY mice male, plasma; intravenous, 37 MBq, 30 min): 89.3 ± 0.9%
CN1C(=O)[C@@H](NC(=O)c2nnc(Cc3ccccc3)[nH]2)COc2cccnc21 — TEAE leading to permanent discontinuation (phase I single ascending dose; human, male and female; oral, 400 mg, fasted): 0%
C=CC(=O)NC1CCN(c2ncc3ncnc(Nc4ccc(Oc5ccc6c(c5)ncn6C)c(C)c4)c3n2)CC1 — adverse events incidence (item: faeces hard; human male; oral, dose not given, AEs, treatment-related, on drug, CTCAE): 0%
C=CCN1CC(=O)N2[C@@H](Cc3ccc(O)cc3F)C(=O)N(Cc3cccc(N4CC(N5CCN(CC)CC5)C4)n3)C[C@@H]2N1C(=O)NCc1ccccc1 — treatment-related AST increased (advanced solid tumour patients; oral, 10 mg twice daily, any grade, dose-escalation): 0%
C[C@@H](N)C1CCN(S(=O)(=O)c2cccc3cnccc23)CC1 — TEAE incidence (healthy volunteers; 150 mg, fed): 40%
CC(C)(C)NC(=O)C1CCN(Cc2cccc(/N=N/c3cccc(F)c3)c2)CC1 — absorption maximum, cis isomer (DMSO; 25 µM, 25 °C): 434 nm
CCCCC1=NC2(CCCC2)C(=O)N1Cc1ccc(-c2ccccc2S(=O)(=O)Nc2noc(C)c2C)c(COCC)c1 — AUC(0-inf) (healthy adult volunteers, plasma; oral, 100 mg, 14 days repeated dosing, fasted, crushed tablet): 26600 ng·h/mL
O=C(NCc1cc[nH]n1)c1ccc(C2CCCCC2)cc1 — hepatic clearance (liver microsome stability; cynomolgus liver microsomes; 1 µM): 34 mL/min/kg
CCc1cc(C(=O)NC)c2nccc(N3CCc4c(cc(Cn5ccnc5)cc4-c4cn(C)nc4C(F)(F)F)C3=O)c2c1 — blood Mono change (Sprague Dawley rats; oral, 100 mg/kg twice daily, 7 days; reference: vehicle): -18.6%
COc1ncc(-c2nc3c(n2C(C)C)[C@H](c2ccc(Cl)cc2)N(c2cc(Cl)cn(C)c2=O)C3=O)c(OC)n1 — Cmax (LC-MS/MS; human, plasma; oral, 15 mg, cycle 2 day 1, low-dose arm): 118 ng/mL
CNC(=O)c1ccc(-c2cnc3ncc(Cc4ccc5ncccc5c4)n3n2)cc1F — unbound Cmax (human, healthy subjects, plasma; oral, 200 mg single dose, adjusted geometric mean): 50.9 ng/mL
NC(=O)CCNC(=O)c1ccc(C2CCCCC2)cc1 — hepatic clearance (liver microsome stability; human liver microsomes; 1 µM, without NADPH): 3.9 mL/min/kg
O=C1CCc2ccc(OCCCCN3CCN(c4cccc(Cl)c4Cl)CC3)cc2N1 — time on bar (catalepsy, bar test; Sprague-Dawley rat; intraperitoneal, dose not given, 60 min): < 20 s
Cc1cn(C(=O)c2c(-c3c(Cl)cc(Cl)cc3Cl)noc2C(C)(C)F)c2cccc(/C=C/C(=O)O)c12 — AUC(0-8h) (human patients; 125 mg bid, cycle 1 day 1): 21600 ng·h/mL
CO[C@H]1C[C@@H]2CC[C@@H](C)[C@@](O)(O2)C(=O)C(=O)N2CCCC[C@H]2C(=O)O[C@H]([C@H](C)C[C@@H]2CC[C@@H](OC(=O)NCCOCCOCCOCCOCCOCCOCCOCCOCCC(=O)N3CCc4cc(Cn5nc(-c6ccc7oc(N)nc7c6)c6c(N)ncnc65)ccc4C3)[C@H](OC)C2)C[C@@H](O)[C@H](C)/C=C(\C)[C@@H](O)[C@@H](OC)C(=O)[C@H](C)C[C@H](C)/C=C/C=C/C=C/1C — Tmax (human patients, plasma; intravenous, 10 mg, cycle 1 day 15, weekly dosing, 1 h infusion, arithmetic mean): 0.83 h
FC(F)(F)c1cc(Nc2nc(Cl)nc(Cl)n2)cc(C(F)(F)F)c1 — degradation rate constant (chemical stability, HPLC-MS; borate buffered saline; pH 10.2, no N-acetyl-lysine): 0.7 h⁻¹
Cc1ccc([C@@H]2O[C@H](CO)[C@@H](O)[C@H](O)[C@H]2O)cc1Cc1ccc(-c2ccc(F)cc2)s1 — volume of distribution (human, maintenance hemodialysis patients; oral, 300 mg once daily, steady state, mean): 206 L
CN[C@@H](C)C(=O)N[C@H]1CN(S(=O)(=O)c2cccc(S(=O)(=O)N3CC[C@H]4CC[C@@H](C(=O)NC(c5ccccc5)c5ccccc5)N4C(=O)[C@@H](NC(=O)[C@H](C)NC)C3)c2)CC[C@H]2CC[C@@H](C(=O)NC(c3ccccc3)c3ccccc3)N2C1=O — AUC(0-t) (LC-MS/MS; human, advanced solid tumours, plasma; intravenous, 20 mg weekly, day 1): 458 ± 199 ng·h/mL
O=C(Nc1cnccc1Cl)N1CCN(Cc2ccc3c(c2)OC(F)(F)O3)CC1 — adverse event incidence (item: Ecchymosis; human healthy young men; 75 mg, multiple dose): 0%
CCOc1c([C@H](C)n2nc(C)c3c(N)ncnc32)cc(Cl)c(F)c1[C@@H]1CNC(=O)C1 — observations with ΔQTcF 30-60 ms (human B-cell malignancy patients; oral, 30 mg once daily): 0.8%
CN(C(=O)n1cnc(-c2ccc[n+]([O-])c2)c1)[C@H]1CC[C@H](O)CC1 — tissue concentration (rat, cerebellum; oral, 10 mg/kg daily for 5 days, 72 h): 6.9 ± 3.4 ng/g
O=C(N[C@H](Cc1c[nH]c2ccccc12)C(=O)Nc1ccncc1)c1ccc(N2CCN(c3ccc(F)cc3F)CC2)cc1F — concentration (Swiss Webster mouse, female, fat; oral, 50 mg/kg, 2 h, 20% Kolliphor vehicle): 12800 nM
CC(C)NCCCC[C@@H]1NC(=O)[C@H](Cc2ccc(O)cc2)NC(=O)[C@H](Cc2ccccc2)NC(=O)CC[C@H](C(=O)N[C@@H](CCCCNC(C)C)C(=O)N[C@@H](CCCCNC(=O)[C@H](CCC(=O)O)NC(=O)[C@H](CCC(=O)O)NC(=O)[C@H](CCC(=O)O)NC(=O)CN2CCN(CC(=O)O)CCN(CC(=O)O)CCN(CC(=O)O)CC2)C(N)=O)NC(=O)CNC(=O)[C@H](Cc2ccc3ccccc3c2)NC(=O)[C@@H](CCCNC(=N)N)NC1=O [gallium-68 labelled] — tissue uptake (mouse with Daudi xenograft, testes; intravenous, 1 h): 0.12 %ID/g
Cn1cc(-c2cn3nccc3c(-c3cnn([C@]4(CC#N)C[C@@H](C#N)C4)c3)n2)cn1 — Vz/F (healthy human fed; 200 mg twice daily, day 10): 3220 L
CCCCCCCCCCCCCCCC(=O)N[C@@H](CCC(=O)NCCCC[C@@H]1NC(=O)[C@H]([C@@H](C)CC)NC(=O)[C@@H](NC(=O)[C@@H]2CCCN2C(=O)[C@H](Cc2ccccc2)NC(=O)[C@H](Cc2c[nH]cn2)NC(=O)[C@@H](NC(=O)[C@H](CC(=O)O)NC(=O)CC(C)C)[C@@H](C)O)CSSC[C@@H](C(=O)N[C@@H](CCCCN)C(N)=O)NC(=O)CNC(=O)[C@H](CCCCN)NC(=O)[C@H](CO)NC(=O)[C@H](CCCNC(=N)N)NC(=O)[C@@H]2CCCN2C(=O)[C@H](CCC(=O)O)NC(=O)[C@H](Cc2ccccc2)NC1=O)C(=O)O — half-life (healthy volunteers, plasma; subcutaneous, 20 mg single, lyophilised formulation): 28.6 ± 11.3 h
N#CCC(=O)Nc1ccc(C2CCCCC2)cc1 — hepatic clearance (liver microsome stability; dog liver microsomes; 1 µM): 29 mL/min/kg
Cn1ncnc1[C@H]1c2n[nH]c(=O)c3cc(F)cc(c23)N[C@@H]1c1ccc(F)cc1 — AUC(0-8h) (human patients, plasma; oral, 600 µg/m2 twice daily day 1, day 5, dose level DL4, median, added: temozolomide 30 mg/m2 daily days 2-6): 83.3 ng·h/mL
